Measurements from different studies.
Every numbered part comes from another study and shows a few of its results, in no order.
UniProt P52333, sequence (whole entry, looked up): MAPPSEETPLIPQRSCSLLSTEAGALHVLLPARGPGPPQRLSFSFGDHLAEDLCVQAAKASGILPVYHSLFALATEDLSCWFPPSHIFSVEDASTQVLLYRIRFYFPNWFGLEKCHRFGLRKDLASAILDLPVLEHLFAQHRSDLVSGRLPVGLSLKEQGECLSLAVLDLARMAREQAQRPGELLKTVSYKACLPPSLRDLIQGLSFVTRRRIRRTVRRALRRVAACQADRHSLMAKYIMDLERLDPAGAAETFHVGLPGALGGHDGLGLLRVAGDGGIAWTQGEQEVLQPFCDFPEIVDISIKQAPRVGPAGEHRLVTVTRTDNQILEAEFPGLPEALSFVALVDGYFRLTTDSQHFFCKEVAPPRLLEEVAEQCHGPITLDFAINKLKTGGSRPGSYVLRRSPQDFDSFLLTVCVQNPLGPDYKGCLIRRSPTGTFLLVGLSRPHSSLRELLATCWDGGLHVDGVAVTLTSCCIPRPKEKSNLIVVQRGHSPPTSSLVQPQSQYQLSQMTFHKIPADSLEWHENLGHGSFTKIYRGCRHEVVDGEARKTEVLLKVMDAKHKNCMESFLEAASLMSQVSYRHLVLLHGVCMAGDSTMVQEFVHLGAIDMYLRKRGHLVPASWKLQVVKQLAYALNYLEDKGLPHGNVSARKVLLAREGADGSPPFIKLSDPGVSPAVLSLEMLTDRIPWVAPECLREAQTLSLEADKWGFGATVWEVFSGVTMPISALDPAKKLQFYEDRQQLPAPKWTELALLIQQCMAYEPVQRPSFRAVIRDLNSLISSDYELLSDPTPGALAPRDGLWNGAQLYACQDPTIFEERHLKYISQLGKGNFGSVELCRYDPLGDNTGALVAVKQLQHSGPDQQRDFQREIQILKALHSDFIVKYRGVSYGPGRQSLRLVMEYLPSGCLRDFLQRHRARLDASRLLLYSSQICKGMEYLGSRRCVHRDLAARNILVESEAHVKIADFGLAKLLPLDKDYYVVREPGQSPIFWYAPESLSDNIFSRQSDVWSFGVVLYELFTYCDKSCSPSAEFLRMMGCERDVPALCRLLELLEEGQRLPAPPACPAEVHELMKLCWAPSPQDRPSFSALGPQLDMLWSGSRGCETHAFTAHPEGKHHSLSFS
UniProt Q15303, sequence (whole entry, looked up): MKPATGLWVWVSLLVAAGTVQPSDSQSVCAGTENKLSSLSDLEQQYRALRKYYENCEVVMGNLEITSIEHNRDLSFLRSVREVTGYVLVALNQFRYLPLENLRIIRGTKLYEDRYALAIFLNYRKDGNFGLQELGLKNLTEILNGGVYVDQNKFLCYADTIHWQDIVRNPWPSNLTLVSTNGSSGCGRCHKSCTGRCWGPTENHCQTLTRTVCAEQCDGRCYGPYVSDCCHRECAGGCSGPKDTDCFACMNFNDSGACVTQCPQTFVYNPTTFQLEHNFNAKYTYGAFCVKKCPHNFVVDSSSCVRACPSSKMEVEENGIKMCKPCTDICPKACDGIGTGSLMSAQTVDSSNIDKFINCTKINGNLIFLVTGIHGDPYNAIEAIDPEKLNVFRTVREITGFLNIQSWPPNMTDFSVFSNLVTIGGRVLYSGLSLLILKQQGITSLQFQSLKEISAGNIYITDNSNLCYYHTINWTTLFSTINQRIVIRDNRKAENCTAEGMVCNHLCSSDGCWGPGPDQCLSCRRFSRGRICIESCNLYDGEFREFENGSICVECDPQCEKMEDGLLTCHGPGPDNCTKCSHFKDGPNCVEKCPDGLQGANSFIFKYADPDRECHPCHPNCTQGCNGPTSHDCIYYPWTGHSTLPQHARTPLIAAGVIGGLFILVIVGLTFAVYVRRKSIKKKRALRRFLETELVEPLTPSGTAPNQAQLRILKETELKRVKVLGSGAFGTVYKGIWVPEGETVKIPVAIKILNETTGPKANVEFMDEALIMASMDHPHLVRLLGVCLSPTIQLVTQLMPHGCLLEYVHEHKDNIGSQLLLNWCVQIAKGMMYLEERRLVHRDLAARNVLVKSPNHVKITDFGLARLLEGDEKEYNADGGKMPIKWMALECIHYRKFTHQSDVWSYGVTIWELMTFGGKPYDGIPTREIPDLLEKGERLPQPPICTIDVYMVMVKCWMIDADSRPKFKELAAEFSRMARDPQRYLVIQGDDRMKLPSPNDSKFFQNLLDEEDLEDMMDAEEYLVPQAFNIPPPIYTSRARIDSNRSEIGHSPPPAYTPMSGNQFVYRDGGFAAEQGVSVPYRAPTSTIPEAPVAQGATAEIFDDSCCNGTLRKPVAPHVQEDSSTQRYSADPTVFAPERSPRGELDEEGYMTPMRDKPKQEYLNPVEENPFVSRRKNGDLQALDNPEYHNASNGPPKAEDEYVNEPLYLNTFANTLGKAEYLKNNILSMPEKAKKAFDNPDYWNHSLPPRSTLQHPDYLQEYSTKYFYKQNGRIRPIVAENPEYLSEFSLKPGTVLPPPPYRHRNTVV
UniProt O23661, sequence (whole entry, looked up): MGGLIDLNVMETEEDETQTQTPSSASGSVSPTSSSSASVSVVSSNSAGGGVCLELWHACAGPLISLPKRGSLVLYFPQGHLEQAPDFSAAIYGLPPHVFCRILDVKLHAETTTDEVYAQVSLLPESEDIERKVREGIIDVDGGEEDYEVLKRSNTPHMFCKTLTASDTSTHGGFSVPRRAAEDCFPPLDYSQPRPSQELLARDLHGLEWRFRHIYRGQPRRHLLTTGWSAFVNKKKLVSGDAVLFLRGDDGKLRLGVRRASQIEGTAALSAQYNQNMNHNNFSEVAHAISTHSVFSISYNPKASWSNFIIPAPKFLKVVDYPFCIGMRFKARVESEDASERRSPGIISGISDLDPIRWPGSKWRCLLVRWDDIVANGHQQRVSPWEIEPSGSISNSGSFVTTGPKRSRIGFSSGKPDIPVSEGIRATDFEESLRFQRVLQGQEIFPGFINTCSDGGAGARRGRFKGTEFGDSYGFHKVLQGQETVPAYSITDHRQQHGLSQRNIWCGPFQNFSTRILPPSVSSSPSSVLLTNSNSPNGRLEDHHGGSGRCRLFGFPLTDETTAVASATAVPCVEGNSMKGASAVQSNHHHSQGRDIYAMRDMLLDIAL
UniProt Q15349, sequence (whole entry, looked up): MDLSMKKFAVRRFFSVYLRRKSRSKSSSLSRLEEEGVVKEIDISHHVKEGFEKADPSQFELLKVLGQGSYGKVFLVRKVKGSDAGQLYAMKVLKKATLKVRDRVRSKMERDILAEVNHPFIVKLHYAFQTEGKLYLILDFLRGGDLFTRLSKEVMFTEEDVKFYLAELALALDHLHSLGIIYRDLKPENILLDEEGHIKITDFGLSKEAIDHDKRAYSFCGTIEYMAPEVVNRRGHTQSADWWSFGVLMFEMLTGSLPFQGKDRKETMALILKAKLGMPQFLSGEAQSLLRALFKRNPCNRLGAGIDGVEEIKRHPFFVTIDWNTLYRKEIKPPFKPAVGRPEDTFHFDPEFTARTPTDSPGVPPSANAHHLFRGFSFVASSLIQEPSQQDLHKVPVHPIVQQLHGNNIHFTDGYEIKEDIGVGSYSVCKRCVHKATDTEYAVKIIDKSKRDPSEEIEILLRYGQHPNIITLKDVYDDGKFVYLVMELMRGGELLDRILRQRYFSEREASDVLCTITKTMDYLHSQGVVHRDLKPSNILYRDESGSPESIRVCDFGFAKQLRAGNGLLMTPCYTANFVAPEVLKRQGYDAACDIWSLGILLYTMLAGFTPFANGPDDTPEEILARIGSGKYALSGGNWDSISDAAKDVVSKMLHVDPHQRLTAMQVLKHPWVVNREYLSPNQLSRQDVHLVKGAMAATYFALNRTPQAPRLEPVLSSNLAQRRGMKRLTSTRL
UniProt Q9UL54, sequence (whole entry, looked up): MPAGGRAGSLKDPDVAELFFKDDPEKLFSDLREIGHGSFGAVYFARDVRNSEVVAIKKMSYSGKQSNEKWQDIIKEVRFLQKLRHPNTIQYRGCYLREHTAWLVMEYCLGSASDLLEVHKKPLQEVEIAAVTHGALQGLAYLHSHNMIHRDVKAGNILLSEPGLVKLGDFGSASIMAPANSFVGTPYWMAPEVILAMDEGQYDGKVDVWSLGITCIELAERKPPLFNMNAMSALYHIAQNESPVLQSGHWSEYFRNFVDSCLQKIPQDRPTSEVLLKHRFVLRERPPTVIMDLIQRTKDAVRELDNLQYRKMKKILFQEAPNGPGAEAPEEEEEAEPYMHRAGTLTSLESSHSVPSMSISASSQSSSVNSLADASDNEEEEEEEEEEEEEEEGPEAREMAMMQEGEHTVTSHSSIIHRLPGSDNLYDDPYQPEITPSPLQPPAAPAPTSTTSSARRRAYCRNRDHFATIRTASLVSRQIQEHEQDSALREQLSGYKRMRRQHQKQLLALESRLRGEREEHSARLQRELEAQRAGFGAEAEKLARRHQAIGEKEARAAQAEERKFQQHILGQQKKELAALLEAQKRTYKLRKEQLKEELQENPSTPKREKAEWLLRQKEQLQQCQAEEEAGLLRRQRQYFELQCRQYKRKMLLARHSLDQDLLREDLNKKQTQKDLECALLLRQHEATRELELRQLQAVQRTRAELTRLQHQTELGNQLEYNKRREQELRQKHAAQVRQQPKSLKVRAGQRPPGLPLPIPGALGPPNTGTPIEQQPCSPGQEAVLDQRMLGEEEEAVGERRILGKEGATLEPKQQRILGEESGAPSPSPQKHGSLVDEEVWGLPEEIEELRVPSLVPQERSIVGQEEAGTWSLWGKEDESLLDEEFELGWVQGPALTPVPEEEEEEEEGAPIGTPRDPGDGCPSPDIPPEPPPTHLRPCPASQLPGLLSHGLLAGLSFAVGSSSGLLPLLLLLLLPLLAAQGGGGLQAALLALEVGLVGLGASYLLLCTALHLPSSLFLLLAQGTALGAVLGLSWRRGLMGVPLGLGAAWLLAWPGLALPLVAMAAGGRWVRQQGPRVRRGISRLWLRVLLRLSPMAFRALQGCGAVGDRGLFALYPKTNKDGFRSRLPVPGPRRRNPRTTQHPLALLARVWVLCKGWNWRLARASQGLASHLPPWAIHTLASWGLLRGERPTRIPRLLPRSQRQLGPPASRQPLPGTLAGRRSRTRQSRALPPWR

Set 1
Target: Hepatocyte nuclear factor 3-alpha (Foxa1, Mus musculus, UniProt P35582, residues 1-468, full length assumed)
Technique: EMSA with sequencing
Form: double-stranded DNA, one strand shown
Medium: in vitro
Tested at: 10 and 20 nM
Notes: whole designed probe, mean of two concentrations, ends assumed
Reference: negative control set to 0
Reading: higher = stronger binding
Construct (chain): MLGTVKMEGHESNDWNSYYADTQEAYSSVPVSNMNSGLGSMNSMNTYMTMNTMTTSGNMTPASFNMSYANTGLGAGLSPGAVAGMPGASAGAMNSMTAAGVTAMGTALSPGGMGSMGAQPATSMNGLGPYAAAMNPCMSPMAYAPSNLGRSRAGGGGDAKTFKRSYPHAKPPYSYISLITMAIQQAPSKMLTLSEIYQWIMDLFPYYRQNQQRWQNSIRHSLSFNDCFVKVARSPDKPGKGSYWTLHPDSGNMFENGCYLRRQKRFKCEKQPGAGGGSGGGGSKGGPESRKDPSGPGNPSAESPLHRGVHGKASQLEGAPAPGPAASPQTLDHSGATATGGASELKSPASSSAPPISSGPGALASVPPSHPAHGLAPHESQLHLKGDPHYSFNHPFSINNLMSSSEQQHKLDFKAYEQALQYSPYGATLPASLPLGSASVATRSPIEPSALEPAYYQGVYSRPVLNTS
Sequence | normalised bound fraction [ratio]
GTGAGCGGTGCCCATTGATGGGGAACTTCTGAAATGTCTCCCTCAGCTTCTCTCATTCAAACGTAGACTCTGATCAATTTCACCATCAATGCCATTGCACAGAGACAGCGCTTTGACTAAGTAAACAAGACATCTTTTTCAACTAGTGCAGCCCAATGAATGTGGTTAATAATTAAGTGACTAATATTTTGTAAGGCTGTGTGAGAAGCATTAATTAGGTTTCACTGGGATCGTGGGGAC | 0.505
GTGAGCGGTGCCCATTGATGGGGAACTTTATCACAGGACAATGAATATATACCTCAAAATAAAAGATGTAGAATACTGTATTTACATAATTTGGTTAAACAAAACAATACATGACTATGTAAACACGGCTGAGCAGCACATACCTCCTAGTGCTTTTTTTTAAATGTCAAACAGTCATAATTTTTAATCTCCTTTCTTGAGGGTGTCAAAAAAATCTTTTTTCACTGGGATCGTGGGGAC | 0.485
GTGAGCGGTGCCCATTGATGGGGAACAGGTGAATTGGCTGCTTCCATCCTGGCTTGGAACTTCAGACATAGAAGCCTTGGGACTTTCTCAGGACTTCTGACTCATGCTCTCCAGATGCTTGTTTGCTGAATCTCTGTGGATCACGTGACCTTAGCCAGGGATGTTGGTGAAACTGTGTGTTGGTCTAGGTACCTAGCCCATGCTAGGTGCTCATCGAATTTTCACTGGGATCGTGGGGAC | 0.0579
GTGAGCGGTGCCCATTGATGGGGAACTCGGCCAGCCTGGCTTCTGCGCCCCGCCAGGAGGTCGCGGAGCGGAGCGCGGCCAGGAAGTGAGCTGAGAGTGACAGCTCCCCCCACGCGAGAATAAACAAACATCCACACAATGACTCATTCCTGGCTCTTCTTTCTTTCGGGAGGAGGGGAGAAAGGAGCGGGAGGGCGGGCGGGCAGGGGAGAGGCAGGCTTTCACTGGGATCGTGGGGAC | 0.363
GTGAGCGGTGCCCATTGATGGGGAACTACAGGAAATTTATCAGCTCTAGATGATTCTGTTAGCTCGTGATCAATGTTGAGCCTAAAAAGAACGTGGCCGAATCAGTGGTTTGTAACCCAAGATTATTCTAATCAGTCAGTCCGGGGCTATAATGGTAGTTGGATGTTTTTAATACTATCTTTGGCAAATTCCCATATATTCACATACAGCATAGTTACATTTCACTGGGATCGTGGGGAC | -0.0653

Set 2
SMILES: N#CC(=C(N)Sc1ccc(N)cc1)c1ccccc1C(F)(F)F
Effect on: enzyme activity
Action: inhibitor
Tested at: 0.5 µM
Reference: control
target | remaining activity
Ribosomal protein S6 kinase alpha-2 (RPS6KA2, Homo sapiens, UniProt Q15349) | 99.2%
Tyrosine-protein kinase JAK3 (JAK3, Homo sapiens, UniProt P52333) | 101%
Serine/threonine-protein kinase TAO2 (TAOK2, Homo sapiens, UniProt Q9UL54) | 101%
Serine/threonine-protein kinase A-Raf (ARAF, Homo sapiens, UniProt P10398) | 98.8%
Serine/threonine-protein kinase Nek6 (NEK6, Homo sapiens, UniProt Q9HC98) | 101%
Angiopoietin-1 receptor (TEK, Homo sapiens, UniProt Q02763) | 104%
Serine/threonine-protein kinase ULK3 (ULK3, Homo sapiens, UniProt Q6PHR2) | 106%
Macrophage-stimulating protein receptor (MST1R, Homo sapiens, UniProt Q04912) | 90.4%
Serine/threonine-protein kinase Nek1 (NEK1, Homo sapiens, UniProt Q96PY6) | 99%
Tyrosine-protein kinase Mer (MERTK, Homo sapiens, UniProt Q12866) | 80.7%
Tyrosine-protein kinase FRK (FRK, Homo sapiens, UniProt P42685) | 102%
Glycogen synthase kinase-3 beta (GSK3B, Homo sapiens, UniProt P49841) | 102%
Mitogen-activated protein kinase kinase kinase 5 (MAP3K5, Homo sapiens, UniProt Q99683) | 108%

Set 3
SMILES: C[C@H](c1ccc(F)cc1)N(Cc1cccc(C(=O)O)c1)C(=O)c1cnc2ccccc2c1
Effect on: cell-free assay
Technique: competition with immobilised ligand
Tested at: 1 µM
target | remaining binding [%]
Insulin receptor-related protein (INSRR, Homo sapiens, UniProt P14616) | 84
Tyrosine-protein kinase JAK3, JH1 (JAK3, Homo sapiens, UniProt P52333) | 100
Serine/threonine-protein kinase Nek4 (NEK4, Homo sapiens, UniProt P51957) | 100
Tyrosine-protein kinase Blk (BLK, Homo sapiens, UniProt P51451) | 88
Receptor tyrosine-protein kinase erbB-4 (ERBB4, Homo sapiens, UniProt Q15303) | 94
Interferon-induced, double-stranded RNA-activated protein kinase (EIF2AK2, Homo sapiens, UniProt P19525) | 100
Epidermal growth factor receptor (EGFR, Homo sapiens, UniProt P00533, L858R/T790M) | 96
Homeodomain-interacting protein kinase 3 (HIPK3, Homo sapiens, UniProt Q9H422) | 100

Set 4
Sequence: B1 (IAA7)
Technique: two-hybrid
Reference: out of 4 tests
Reading: higher = firmer interaction
B1: IAA7 (Arabidopsis thaliana, UniProt Q38825); chain MIGQLMNLKATELCLGLPGGAEAVESPAKSAVGSKRGFSETVDLMLNLQSNKEGSVDLKNVSAVPKEKTTLKDPSKPPAKAQVVGWPPVRNYRKNMMTQQKTSSGAEEASSEKAGNFGGGAAGAGLVKVSMDGAPYLRKVDLKMYKSYQDLSDALAKMFSSFTMGNYGAQGMIDFMNESKLMNLLNSSEYVPSYEDKDGDWMLVGDVPWEMFVESCKRLRIMKGSEAVGLAPRAMEKYCKNRS
partner | positive tests
IAA18 (Arabidopsis thaliana, UniProt O24408) | 3
IAA15 (Arabidopsis thaliana, UniProt Q9C966) | 2
IAA16 (Arabidopsis thaliana, UniProt O24407) | 1
ETT (Arabidopsis thaliana, UniProt O23661) | 0

Excerpt of the above (set 4):
partner | positive tests
IAA15 (Arabidopsis thaliana, UniProt Q9C966) | 2
IAA16 (Arabidopsis thaliana, UniProt O24407) | 1
IAA18 (Arabidopsis thaliana, UniProt O24408) | 3
